Assay results pooled from the literature.
Compare with care: the assays were run in different laboratories. “And” joins repeats or separate records; there may be more than shown. ± marks the error that the study gave.
Cell line: MDA-MB-231

SMILES | effect on | method | time | setting | IC50
Cc1ccc(C(C)C)cc1.O=C(N=P(c1ccccc1)(c1ccccc1)c1ccccc1)c1ccccn1.[Cl-].[Cl][Ru+] | cell viability | MTT | 72 h | 0.1% DMSO | 2.72 ± 0.11 µM
Cc1ccccc1/C=C/C(=O)N[C@@H]1C(=O)N[C@@H](Cc2ccccc2)C(=O)N[C@H](CC(C)C)C(=O)N[C@@H](C(C)C)C(=O)N[C@@H](C)C(=O)N[C@H](CCC(N)=O)C(=O)NCC(=O)N2CCC[C@H]2C(=O)N[C@@H](CCCNC(=N)N)C(=O)N[C@H](Cc2ccccc2)C(=O)O[C@H]1C | – | – | – | – | > 20 µM
C#CCCCC[C@H](C)C[C@@H](C)C(=O)N(C)[C@H](C(=O)N(C)[C@@H](Cc1ccccc1)C(=O)N1CCC[C@H]1C(=O)N1CCC[C@H]1C(C)=O)C(C)C | cell growth or viability | SRB | – | – | 1.15 µM and 1.18 µM and 1.64 µM
CC1CCC2C(C)C(OC(=O)CCC(=O)N3CCN(CC(=O)Nc4ccc([N+](=O)[O-])c(C(F)(F)F)c4)CC3)OC3OC4(C)CCC1C32OO4 (centres unmarked) | cell growth or viability | CCK-8 | – | – | > 50 µM
CC(C)C12OC1C1OC13C1(C)CCC4=C(COC4=O)C1CC1OC13C2OC(=O)CCC(=O)OC1OC(CO)C(O)C(O)C1O (centres unmarked) | cell growth or viability | XTT | 47 h | – | 0.28 µM
C#CCCCC[C@H](C)C[C@@H](C)C(=O)N[C@@H](C)C(=O)N1CCC[C@H]1C(=O)N[C@H](C(=O)N[C@H](C(=O)N[C@H](C(=O)N[C@@H](Cc1ccccc1)C(=O)N1CCC[C@H]1C(=O)N1CCC[C@H]1C(C)=O)C(C)C)C(C)C)C(C)C | cell growth or viability | SRB | – | – | 6.69 µM and 7.15 µM and 7.03 µM
CCC1=C(C)C2=C(c3ccc(C(=O)NCCNC(=O)c4ccc(P(=NC5=[O+][Ru-]([Cl])[n+]6ccccc65)(c5ccccc5)c5ccccc5)cc4)cc3)c3c(C)c(CC)c(C)n3[B-](F)(F)[N+]2=C1C.Cc1ccc(C(C)C)cc1.Cl | cell viability | MTT | 72 h | 0.1% DMSO | 116 ± 13.3 µM
C[C@H]1[C@H](OC(=O)CCC(=O)OCCC2CCN(CC(=O)Nc3ccc([N+](=O)[O-])c(C(F)(F)F)c3)CC2)O[C@@H]2O[C@@]3(C)CC[C@H]4[C@H](C)CC[C@@H]1[C@@]24OO3 | cell growth or viability | CCK-8 | – | – | > 50 µM
COC(=O)[C@H](C(C)C)N(C)C(=O)[C@H](C(C)C)N(C)C(=O)[C@@H]1CCCN1C(=O)[C@H](C)N(C)C(=O)OC(C)(C)C | cell growth or viability | SRB | – | – | 61.1 µM and 52.5 µM and 55.8 µM
CCCc1cc2cc(-n3nc(C)c4c3CC3(CCC3)CC4=O)cc(N3CCC(O)CC3)c2c(=O)[nH]1 | cell growth or viability | MTS | – | – | 6.7 µM
COc1ccc(CC(=O)N2CCN(CC(OCc3ccc4ccccc4c3)c3ccc(Cl)cc3Cl)CC2)cc1 (centres unmarked) | cell growth or viability | MTT | 24 h | – | 24.5 µM
CC[C@H](C)[C@@H]([C@@H](CC(=O)N1CCC[C@H]1[C@H](OC)[C@@H](C)C(=O)N[C@H](C)[C@@H](O)c1ccccc1)OC)N(C)C(=O)[C@@H](NC(=O)[C@H](C(C)C)N(C)C(=O)OCc1ccc(NC(=O)[C@H](CCCNC(N)=O)NC(=O)[C@@H](NC(=O)CCCc2cn(CC(=O)N[C@@H](CCCCNC(=O)CC[C@H](NC(=O)c3ccc(NCc4cnc5nc(N)[nH]c(=O)c5n4)cc3)C(=O)O)C(=O)NCCCC[C@H]3NC(=O)[C@H](CCCCN)NC(=O)[C@H](CCCNC(N)=O)NC(=O)[C@H](Cc4ccc(O)cc4)NC(=O)[C@@H](NC(=O)[C@H](Cc4ccc5ccccc5c4)NC(=O)[C@H](CCCNC(=N)N)NC(=O)[C@@H](N)CCCNC(=N)N)CSSC[C@@H](C(=O)N[C@@H](CCCNC(=N)N)C(N)=O)NC(=O)[C@H](CCCNC(N)=O)NC(=O)[C@H](CCCNC(=N)N)NC(=O)[C@H](Cc4ccc(O)cc4)NC(=O)[C@@H]4CCCN4C3=O)nn2)C(C)C)cc1)C(C)C | cell growth or viability | CCK-8 | – | – | 1.61 µM
CCC1=C(C)C2=C(c3ccc(C(=O)NCCNC(=O)c4ccc(P(=NC(=O)c5ccccn5)(c5ccccc5)c5ccccc5)cc4)cc3)c3c(C)c(CC)c(C)n3[B-](F)(F)[N+]2=C1C | cell viability | MTT | 72 h | 0.1% DMSO | not toxic
O=C(Cc1ccc(Br)cc1)N1CCN(CC(OCc2ccc3ccccc3c2)c2ccc(Cl)cc2Cl)CC1 (centres unmarked) | cell growth or viability | MTT | 24 h | – | 17.2 µM
